Measurements gathered from unrelated publications.
Protocols differ between the studies behind these lines. Several values in a cell are separate wells, animals, samples, runs or records.
IL1RL2: Interleukin-1 receptor-like 2 (IL1RL2, Homo sapiens, UniProt Q9HB29)
Chain of UniProt Q9HB29 (whole entry, looked up): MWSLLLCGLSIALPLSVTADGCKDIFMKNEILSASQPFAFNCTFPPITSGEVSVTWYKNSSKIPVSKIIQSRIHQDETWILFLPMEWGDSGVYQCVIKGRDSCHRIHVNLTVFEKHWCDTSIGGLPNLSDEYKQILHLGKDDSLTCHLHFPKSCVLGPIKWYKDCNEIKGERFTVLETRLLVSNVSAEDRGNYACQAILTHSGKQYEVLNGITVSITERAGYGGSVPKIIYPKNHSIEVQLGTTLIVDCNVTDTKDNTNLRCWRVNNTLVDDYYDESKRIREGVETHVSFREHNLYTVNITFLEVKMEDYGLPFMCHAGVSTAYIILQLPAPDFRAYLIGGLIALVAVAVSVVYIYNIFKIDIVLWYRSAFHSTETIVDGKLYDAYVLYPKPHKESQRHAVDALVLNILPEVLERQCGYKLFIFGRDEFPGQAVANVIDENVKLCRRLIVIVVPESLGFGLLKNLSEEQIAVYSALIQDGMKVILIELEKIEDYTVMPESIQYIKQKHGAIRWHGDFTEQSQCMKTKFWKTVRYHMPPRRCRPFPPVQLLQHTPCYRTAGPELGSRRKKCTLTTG
DPP9: Dipeptidyl peptidase 9 (DPP9, Homo sapiens, UniProt Q86TI2)
Chain of UniProt Q86TI2 (whole entry, looked up): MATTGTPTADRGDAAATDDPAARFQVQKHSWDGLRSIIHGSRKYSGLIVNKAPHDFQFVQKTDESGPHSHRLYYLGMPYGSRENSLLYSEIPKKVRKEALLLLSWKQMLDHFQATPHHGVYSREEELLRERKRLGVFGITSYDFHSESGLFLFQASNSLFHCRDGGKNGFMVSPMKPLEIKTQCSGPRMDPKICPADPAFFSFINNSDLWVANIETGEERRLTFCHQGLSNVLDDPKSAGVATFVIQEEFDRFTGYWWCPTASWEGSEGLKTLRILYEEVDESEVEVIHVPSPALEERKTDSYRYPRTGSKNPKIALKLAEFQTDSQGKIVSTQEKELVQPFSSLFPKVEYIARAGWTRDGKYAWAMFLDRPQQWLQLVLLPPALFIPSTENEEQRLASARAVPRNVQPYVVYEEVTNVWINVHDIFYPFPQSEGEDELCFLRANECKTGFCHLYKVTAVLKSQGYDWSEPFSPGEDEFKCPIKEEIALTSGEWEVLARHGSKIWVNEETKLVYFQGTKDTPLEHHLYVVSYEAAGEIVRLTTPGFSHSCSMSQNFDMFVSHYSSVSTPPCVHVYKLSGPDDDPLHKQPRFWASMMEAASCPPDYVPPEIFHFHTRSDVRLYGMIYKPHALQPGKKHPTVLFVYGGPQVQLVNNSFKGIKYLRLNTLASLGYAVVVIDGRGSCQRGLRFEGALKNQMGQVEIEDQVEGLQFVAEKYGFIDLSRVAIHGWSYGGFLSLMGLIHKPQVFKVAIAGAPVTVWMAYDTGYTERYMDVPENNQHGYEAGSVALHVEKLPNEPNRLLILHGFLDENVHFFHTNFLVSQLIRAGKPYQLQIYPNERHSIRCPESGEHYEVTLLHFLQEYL
Chain of UniProt Q02763 (whole entry, unmodified, looked up): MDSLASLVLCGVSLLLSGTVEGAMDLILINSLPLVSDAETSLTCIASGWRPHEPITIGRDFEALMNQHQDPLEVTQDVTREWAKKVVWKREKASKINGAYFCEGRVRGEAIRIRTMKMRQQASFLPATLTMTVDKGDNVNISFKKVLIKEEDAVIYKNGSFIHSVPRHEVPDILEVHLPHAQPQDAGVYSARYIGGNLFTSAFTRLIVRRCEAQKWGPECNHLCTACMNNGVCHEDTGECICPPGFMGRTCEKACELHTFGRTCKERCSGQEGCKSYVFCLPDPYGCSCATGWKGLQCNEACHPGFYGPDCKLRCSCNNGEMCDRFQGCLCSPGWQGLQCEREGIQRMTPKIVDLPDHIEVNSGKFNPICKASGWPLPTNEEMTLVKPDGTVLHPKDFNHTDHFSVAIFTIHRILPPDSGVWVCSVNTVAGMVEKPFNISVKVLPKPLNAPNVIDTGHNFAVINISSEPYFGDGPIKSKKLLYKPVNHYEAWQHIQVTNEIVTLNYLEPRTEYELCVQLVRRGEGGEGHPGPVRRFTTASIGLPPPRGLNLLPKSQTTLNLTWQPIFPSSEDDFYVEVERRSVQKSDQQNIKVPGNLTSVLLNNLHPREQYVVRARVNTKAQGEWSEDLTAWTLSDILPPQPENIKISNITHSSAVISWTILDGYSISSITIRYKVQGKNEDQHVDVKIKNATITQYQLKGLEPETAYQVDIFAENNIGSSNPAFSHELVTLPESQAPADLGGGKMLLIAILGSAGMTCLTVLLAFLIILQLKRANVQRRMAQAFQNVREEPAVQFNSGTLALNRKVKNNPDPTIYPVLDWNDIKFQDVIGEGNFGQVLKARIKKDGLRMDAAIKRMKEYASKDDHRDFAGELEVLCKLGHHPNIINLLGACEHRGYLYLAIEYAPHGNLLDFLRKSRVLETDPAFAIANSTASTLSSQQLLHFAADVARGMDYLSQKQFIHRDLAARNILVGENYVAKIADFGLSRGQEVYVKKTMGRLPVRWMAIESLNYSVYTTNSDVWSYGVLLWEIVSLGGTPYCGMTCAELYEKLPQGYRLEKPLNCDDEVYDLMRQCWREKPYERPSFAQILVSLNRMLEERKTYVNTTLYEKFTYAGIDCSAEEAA
Chain of UniProt P54132 (whole entry, looked up): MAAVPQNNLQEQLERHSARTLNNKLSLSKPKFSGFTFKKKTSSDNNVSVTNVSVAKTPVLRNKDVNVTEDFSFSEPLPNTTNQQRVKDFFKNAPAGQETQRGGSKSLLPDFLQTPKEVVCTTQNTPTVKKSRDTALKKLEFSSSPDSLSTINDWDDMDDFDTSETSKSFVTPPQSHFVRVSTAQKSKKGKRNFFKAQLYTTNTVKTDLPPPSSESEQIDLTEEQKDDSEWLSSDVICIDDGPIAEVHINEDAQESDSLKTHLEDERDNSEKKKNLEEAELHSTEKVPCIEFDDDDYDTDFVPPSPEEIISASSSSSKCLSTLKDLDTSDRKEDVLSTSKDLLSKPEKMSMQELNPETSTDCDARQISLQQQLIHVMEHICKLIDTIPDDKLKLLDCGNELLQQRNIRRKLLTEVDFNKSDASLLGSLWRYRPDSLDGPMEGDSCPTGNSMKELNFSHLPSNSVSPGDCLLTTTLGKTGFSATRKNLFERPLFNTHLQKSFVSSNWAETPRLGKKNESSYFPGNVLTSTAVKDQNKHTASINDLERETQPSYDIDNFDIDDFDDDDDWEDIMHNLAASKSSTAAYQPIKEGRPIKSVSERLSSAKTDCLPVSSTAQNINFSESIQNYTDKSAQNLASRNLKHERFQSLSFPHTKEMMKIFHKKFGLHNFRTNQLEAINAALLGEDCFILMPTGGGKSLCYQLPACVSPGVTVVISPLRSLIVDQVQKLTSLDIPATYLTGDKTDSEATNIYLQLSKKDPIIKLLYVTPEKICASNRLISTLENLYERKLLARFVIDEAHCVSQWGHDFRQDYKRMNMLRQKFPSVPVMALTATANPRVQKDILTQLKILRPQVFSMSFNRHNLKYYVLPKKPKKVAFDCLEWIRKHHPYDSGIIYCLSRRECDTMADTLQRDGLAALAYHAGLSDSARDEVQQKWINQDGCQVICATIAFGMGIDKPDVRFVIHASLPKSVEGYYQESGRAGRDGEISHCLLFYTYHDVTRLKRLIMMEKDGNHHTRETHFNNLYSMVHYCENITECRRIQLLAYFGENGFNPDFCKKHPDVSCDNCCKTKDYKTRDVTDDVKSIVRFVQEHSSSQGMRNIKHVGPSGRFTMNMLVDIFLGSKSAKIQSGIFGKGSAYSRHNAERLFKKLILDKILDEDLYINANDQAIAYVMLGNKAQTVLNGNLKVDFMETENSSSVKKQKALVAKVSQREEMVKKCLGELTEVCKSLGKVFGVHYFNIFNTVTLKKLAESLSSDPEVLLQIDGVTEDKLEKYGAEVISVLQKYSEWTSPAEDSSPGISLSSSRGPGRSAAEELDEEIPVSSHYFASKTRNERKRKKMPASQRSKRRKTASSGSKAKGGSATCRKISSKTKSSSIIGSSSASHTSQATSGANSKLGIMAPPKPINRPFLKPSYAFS
Chain of UniProt P27487 (whole entry, looked up): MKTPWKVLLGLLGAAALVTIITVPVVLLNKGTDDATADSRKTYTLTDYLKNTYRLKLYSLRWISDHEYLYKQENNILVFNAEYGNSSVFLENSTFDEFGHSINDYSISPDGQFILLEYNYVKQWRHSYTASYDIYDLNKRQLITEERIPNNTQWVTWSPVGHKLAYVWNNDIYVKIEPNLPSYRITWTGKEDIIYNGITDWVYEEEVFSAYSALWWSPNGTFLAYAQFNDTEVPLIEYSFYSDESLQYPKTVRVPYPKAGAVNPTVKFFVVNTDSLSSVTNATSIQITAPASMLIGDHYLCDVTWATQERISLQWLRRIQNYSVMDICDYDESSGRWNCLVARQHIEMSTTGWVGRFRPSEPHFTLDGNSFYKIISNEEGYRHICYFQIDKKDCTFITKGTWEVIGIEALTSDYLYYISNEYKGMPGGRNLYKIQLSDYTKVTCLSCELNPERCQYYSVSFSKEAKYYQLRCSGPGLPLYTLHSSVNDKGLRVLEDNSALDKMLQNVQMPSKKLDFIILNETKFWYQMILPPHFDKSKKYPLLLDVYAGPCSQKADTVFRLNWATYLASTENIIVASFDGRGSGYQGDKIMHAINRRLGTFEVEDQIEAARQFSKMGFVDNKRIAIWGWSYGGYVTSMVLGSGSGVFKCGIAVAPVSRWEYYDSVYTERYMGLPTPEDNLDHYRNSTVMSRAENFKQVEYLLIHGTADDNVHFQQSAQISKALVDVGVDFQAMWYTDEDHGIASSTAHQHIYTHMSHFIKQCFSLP
Chain of UniProt Q16539 (whole entry, looked up): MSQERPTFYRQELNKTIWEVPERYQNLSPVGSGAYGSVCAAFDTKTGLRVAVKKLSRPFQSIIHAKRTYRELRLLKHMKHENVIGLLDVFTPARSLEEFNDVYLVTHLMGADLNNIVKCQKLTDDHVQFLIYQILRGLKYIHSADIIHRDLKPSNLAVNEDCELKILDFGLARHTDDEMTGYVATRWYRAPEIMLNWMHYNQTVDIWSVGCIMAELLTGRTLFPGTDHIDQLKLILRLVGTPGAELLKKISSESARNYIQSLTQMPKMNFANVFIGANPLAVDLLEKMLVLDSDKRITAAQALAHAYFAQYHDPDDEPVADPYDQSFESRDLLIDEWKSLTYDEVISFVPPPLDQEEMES

target	assay	system	setting	scale	remaining activity	SMILES
IL1RL2	reporter gene (SEAP), inhibitor, HEK-Blue IL-36R reporter	HEK-Blue IL-36R cells	11.11 µM, 6 h, together with: IL-36β 100 ng/mL	–	95.4%	CC(C)[C@@H]1NC(=O)[C@H](Cc2ccccc2)NC(=O)CSC[C@@H](C(N)=O)NC(=O)[C@H](CCC(=O)O)NC(=O)[C@H](CO)NC(=O)[C@H](Cc2c[nH]c3cccc(Cl)c23)NC(=O)[C@H](C2CCCCC2)NC(=O)[C@H](C(C)C)NC(=O)[C@H](Cc2ccc(O)cc2)NC(=O)[C@H](CC(=O)O)NC(=O)[C@H](Cc2c[nH]c3ccccc23)NC(=O)[C@H](Cc2ccc(N)nc2)NC(=O)[C@H](Cc2c[nH]c3ccc(Cl)cc23)NC(=O)[C@H](CCC(=O)O)NC1=O
P2X purinoceptor 7 (Ailuropoda melanoleuca, UniProt G1M6C4)	ATP-evoked current, whole-cell patch clamp	HEK293 (transfected)	0.0003 µM	reference: no compound	91.6%	C[C@@H]1c2nnn(-c3ncc(F)cn3)c2CCN1C(=O)c1cccc(C(F)(F)F)c1Cl
DPP9	enzyme activity, inhibitor	–	5 µM	–	90%	CCC1(CC)C(=O)N(c2cccc(CN3CCN(C)CC3)c2)C1=O
Mitogen-activated protein kinase 14 (MAPK14, Homo sapiens, UniProt Q16539)	kinase activity, inhibitor	–	1.646 µM, unit not given	reference: no inhibitor	1.01	COC(=O)[C@@]1(C)C=C(C(=O)Nc2cccc(C(=O)Nc3ccc(Nc4nccc(-c5cccnc5)n4)c(C)c3)c2)C(=O)CC1
DPP9	enzyme activity, inhibitor	–	5 µM	–	45%	CCC1(CC)C(=O)N(c2cccc(CN3CCN(Cc4cccc5ccccc45)CC3)c2)C1=O
Epidermal growth factor receptor (EGFR, Homo sapiens, UniProt P00533, del746-750)	–	–	concentration not given	reference: untreated control	77%	Cc1cnc2nc1Nc1cccc(c1)COC/C=C/COCc1cc(ccc1OCCN1CCOCC1)N2
Rho-associated protein kinase 2 (Rock2, Rattus norvegicus, UniProt Q62868)	enzyme activity	–	100 nM, rat enzyme, together with: 10 µM ATP	reference: untreated	107%	O=C=[N][Ru-4]123([n]4c5ccc(O)cc5c5c6c(c7cc(F)c[n+]1c7c54)C(=O)NC6=O)[S+]1CC[S+]2CC[S+]3CC1 (centres unmarked)
DPP9	enzyme activity, inhibitor	–	5 µM	–	61%	CCC1(CC)C(=O)N(c2cccc(CN3CCN(Cc4ccc(Br)cc4)CC3)c2)C1=O
IL1RL2	SEAP reporter gene, antagonist	HEK-Blue IL-36R cells	0.14 µM, 6 h, together with: IL-36β 0.003 ng/mL	reference: untreated	106%	N#Cc1cnc2sc(C(=O)O)cc2c1N1CCc2[nH]nc(C(=O)N[C@@H](CC(=O)NCCOCCN3CCOCC3)c3cccc(Br)c3)c2C1
human CMG helicase	helicase activity	–	125 µM, together with: ATP 0.5 mM	–	2%	CO[C@@H]1[C@@H](OC(=O)c2ccc(C)[nH]2)[C@@H](O)[C@H](Oc2ccc3c(O)c(NC(=O)c4c[nH]c(C(=O)Nc5c(O)c6ccc(O[C@@H]7OC(C)(C)[C@H](OC)[C@@H](OC(=O)c8ccc(C)[nH]8)[C@H]7O)c(C)c6oc5=O)c4C)c(=O)oc3c2C)OC1(C)C
Angiopoietin-1 receptor (TEK, Homo sapiens, UniProt Q02763, R849W)	kinase activity	–	0.03 µM	reference: control	104%	COc1ccc(NC(=O)Nc2ccc3c(c2)C(=O)N(C(C)CO)CC(C)C(CN(C)Cc2ccc4c(c2)OCO4)O3)cc1 (centres unmarked)
RecQ-like DNA helicase BLM, residues 636–1298 (BLM, Homo sapiens, UniProt P54132)	ATPase activity, ADP-Glo	–	0.48 µM, 1 h	–	94%	COc1ccccc1-c1ccncc1C(=O)Nc1nnc(OCc2ccc(Cl)cc2)s1
Dipeptidyl peptidase 4 (DPP4, Homo sapiens, UniProt P27487)	enzyme activity, inhibitor	–	10 µM	–	95.6%	C[C@](C(=O)NC1CCOCC1)(c1cncnc1)N(C(=O)[C@H](F)Cl)c1ccc(OC(F)(F)Cl)cc1
Acetyl-CoA synthetase (Cryptococcus neoformans, UniProt J9VFT1)	enzyme activity, inhibitor, coupled pyrophosphate	–	15.6 µM	–	39.1% and 28.4%	CN(Cc1cc(C2CC2)on1)C(=O)c1cccc(-c2ccc3c(c2)CCO3)c1

Repeated from above:
target	assay	system	setting	scale	remaining activity	SMILES
DPP9	enzyme activity, inhibitor	–	5 µM	–	61%	CCC1(CC)C(=O)N(c2cccc(CN3CCN(Cc4ccc(Br)cc4)CC3)c2)C1=O
Rho-associated protein kinase 2 (Rock2, Rattus norvegicus, UniProt Q62868)	enzyme activity	–	100 nM, rat enzyme, together with: 10 µM ATP	reference: untreated	107%	O=C=[N][Ru-4]123([n]4c5ccc(O)cc5c5c6c(c7cc(F)c[n+]1c7c54)C(=O)NC6=O)[S+]1CC[S+]2CC[S+]3CC1 (centres unmarked)
